# Experimental data of several laboratories.
# Each line is one published result; not all experiments were run side by side.
# KIT V559D/V654A: Mast/stem cell growth factor receptor Kit (KIT, Homo sapiens, UniProt P10721, V559D/V654A)
# KIT: Mast/stem cell growth factor receptor Kit (KIT, Homo sapiens, UniProt P10721)
# KIT D816V: Mast/stem cell growth factor receptor Kit (KIT, Homo sapiens, UniProt P10721, D816V)
# KIT T670I/V559D: Mast/stem cell growth factor receptor Kit (KIT, Homo sapiens, UniProt P10721, T670I/V559D)
# KIT V559D: Mast/stem cell growth factor receptor Kit (KIT, Homo sapiens, UniProt P10721, V559D)
SMILES,target,assay,setting,how to read,remaining binding
C=CC(=O)N1CCc2ccc(-n3c(=O)ccc4cnc5ccc(-c6cnn(C)c6)cc5c43)cc21,KIT V559D/V654A,KINOMEscan,1 µM,relative to: DMSO control,100%
Cc1ccc(-c2c(/C=C(\C#N)C(=O)NC(C)C)n(CCCO)c3ncnc(N)c23)cc1,KIT,"cell-free assay, competition with immobilised ligand",1 µM,,34%
CN1CCN(Cc2ccc(NC(=O)c3cccc(C#Cc4cnc(N)c5ncccc45)c3)cc2C(F)(F)F)CC1,KIT D816V,"cell-free assay, competition with immobilised ligand",50 nM,,24%
CCN1CCN(Cc2ccc(NC(=O)c3ccc(C)c(NC(=O)c4cncc(-c5cccs5)c4)c3)cc2C(F)(F)F)CC1,KIT T670I/V559D,"binding, competition with immobilised ligand",1 µM,,1%
C=CC(=O)N1CCCC(n2c(=O)c3ncccc3n(Cc3ccc(Oc4ccccc4)cc3)c2=O)C1 (stereo not shown),KIT V559D,"cell-free assay, competition with immobilised ligand",1 µM,,100%
CNC(=O)C1CCN(c2cc(C)c(F)cc2NC(=O)c2ccc(-c3cc(O)ccc3C)c(C)c2)CC1,KIT D816V,"binding, competition with immobilised ligand",1 µM,,6.8%
Cc1cnc2nc1Nc1cccc(c1)COC/C=C/COCc1cc(ccc1OCCN1CCOCC1)N2,KIT V559D,binding,0.1 µM,,19%
CNS(=O)(=O)Nc1nccc(Cc2c(C)c3ccc(Oc4ncccc4F)cc3oc2=O)c1F,KIT,"binding, competition with immobilised ligand",10 µM,,95%
CC(=O)N1c2ccc(-c3ccc(CNC(=O)c4cn5cc(-c6cnc(N)nc6)nc(N6CCOCC6)c5n4)cc3)cc2CC[C@@H]1C,KIT D816V,KINOMEscan,10 µM,,100%
Cc1ccc(C(=O)Nc2cccc(C(F)(F)F)c2)cc1Nc1cncc(C(N)=O)c1,KIT V559D,"binding, competition with immobilised ligand",1 µM,,0%
CNC1C[S+]2CC[S+]3CC[S+](C1)[Ru-4]321([N]=C=S)[n]2c3ccc(OC)cc3c3c4c(c5cc(F)c[n+]1c5c32)C(=O)NC4=O (stereo not shown),KIT T670I/V559D,KinomeScan,0.1 µM,relative to: untreated,86%
COC(=O)[C@@]1(C)C=C(C(=O)Nc2cccc(C(=O)Nc3ccc(Nc4nccc(-c5cccnc5)n4)c(C)c3)c2)C(=O)CC1,KIT,"binding, competition with immobilised ligand",1 µM,,25%
Nc1ncc2c(n1)-c1c([nH]c3ccc(C4=CCOCC4)cc13)CCC2,KIT V559D/V654A,"binding, competition with immobilised ligand",1 µM,,94%
COc1c(Cl)cccc1Nc1c(-c2ccncc2C#C[C@@]2(C)CCCN2C(=O)/C=C/CN(C)C)[nH]c2c1C(=O)NCC2,"KIT (Homo sapiens, UniProt P10721, A829P)","binding, competition with immobilised ligand",3 µM,,85%
CC(C)=CC1OC(C)(C)C2C=C3C(=O)C(Cl)=CC(O)C3C3C(O)C4OC4C(=O)C132 (stereo not shown),KIT T670I/V559D,"cell-free assay, competition with immobilised ligand",10 µM,,90%
CCN1CCN(Cc2ccc(C(=O)Nc3ccc(C)c(NCc4cnc5[nH]ccc5c4OC)c3)cc2C(F)(F)F)CC1,KIT T670I/V559D,"binding, competition with immobilised ligand",1 µM,,2.8%
